Literature values as cited in several papers.
Each numbered part shows a few of the values that one paper quotes. Values joined by “and” are separate records of one study, mostly repeats; a detail may differ. Numbers after ± are the reported error. In brackets after ≈: the same amount, converted by molar mass.
Chain of UniProt Q02318 (whole entry, looked up): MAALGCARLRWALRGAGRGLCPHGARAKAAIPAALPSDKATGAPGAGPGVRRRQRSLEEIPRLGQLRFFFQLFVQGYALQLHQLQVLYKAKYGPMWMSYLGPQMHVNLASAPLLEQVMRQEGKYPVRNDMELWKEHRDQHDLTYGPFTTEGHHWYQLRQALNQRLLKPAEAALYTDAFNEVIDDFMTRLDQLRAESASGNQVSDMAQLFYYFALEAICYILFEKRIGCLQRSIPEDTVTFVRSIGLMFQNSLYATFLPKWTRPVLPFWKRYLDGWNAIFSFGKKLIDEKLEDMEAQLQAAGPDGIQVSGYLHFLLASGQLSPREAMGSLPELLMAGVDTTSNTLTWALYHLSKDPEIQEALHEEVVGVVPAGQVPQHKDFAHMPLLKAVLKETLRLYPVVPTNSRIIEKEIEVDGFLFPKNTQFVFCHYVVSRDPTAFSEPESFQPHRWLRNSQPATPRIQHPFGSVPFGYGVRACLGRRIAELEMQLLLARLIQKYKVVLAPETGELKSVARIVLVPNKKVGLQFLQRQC
Chain of UniProt P0AF12 (whole entry, looked up): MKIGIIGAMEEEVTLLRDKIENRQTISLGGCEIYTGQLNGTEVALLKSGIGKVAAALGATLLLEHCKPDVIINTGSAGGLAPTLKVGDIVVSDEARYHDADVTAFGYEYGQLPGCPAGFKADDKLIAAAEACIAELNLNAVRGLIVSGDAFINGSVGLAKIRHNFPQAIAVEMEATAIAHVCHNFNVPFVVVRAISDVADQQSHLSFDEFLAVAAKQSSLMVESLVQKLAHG

Set 1
Organism: Cryptosporidium parvum
Method: high-throughput screen
Concentration: concentration not given
SMILES | activity
CNC(=O)Oc1ccc2c(c1)[C@]1(C)CCN(C)[C@@H]1N2C.CNC(=O)Oc1ccc2c(c1)[C@]1(C)CCN(C)[C@@H]1N2C.O=S(=O)(O)O | inactive
FC(F)(F)c1cccc(N2CCNCC2)c1 | inactive
O=C(O)C(Cl)Cl | inactive
C[C@]12CC[C@H]3[C@@H](CCC4=CC(=O)CC[C@@]43C)[C@@H]1CC[C@@H]2O | inactive
O=C1CN=C(c2ccccc2)c2cc([N+](=O)[O-])ccc2N1 | inactive
CN1C(=O)CN=C(c2ccccc2)c2cc(Cl)ccc21 | inactive
CCCCCCCCCOc1ccc2[nH]cc(CCN)c2c1 | inactive
O=C1Nc2ccc(Cl)cc2C(c2ccccc2Cl)=NC1O (centres unmarked) | inactive
C=C(C)CN1CC[C@]23c4c5ccc(O)c4O[C@H]2c2[nH]c4ccccc4c2C[C@@]3(O)C1C5.Cl.O | inactive
CN1C(=O)CN=C(c2ccccc2)c2cc([N+](=O)[O-])ccc21 | inactive
CC[C@]1(O)CC[C@H]2[C@@H]3CCC4=CCCC[C@@H]4[C@H]3CC[C@@]21C | inactive
CC(C)[C@]12O[C@H]1[C@@H]1O[C@]13[C@]1(O[C@H]1C[C@H]1C4=C(CC[C@@]13C)C(=O)OC4)[C@@H]2O | inactive
CNCC(O)c1ccc(O)cc1 (centres unmarked) | inactive
CCN(CC)CCOC(=O)C(O)(c1ccccc1)c1ccccc1.Cl | inactive
CCOC(=O)C1(c2ccccc2)CCN(CCC(C#N)(c2ccccc2)c2ccccc2)CC1 | inactive
CCN(C(C)=O)c1cccc(-c2ccnc3c(C#N)cnn23)c1 | inactive
COC(=O)N1CCN(C(=O)Cc2ccc(Cl)c(Cl)c2)C(CN2CCCC2)C1.O=C(O)/C=C/C(=O)O (centres unmarked) | inactive
C#CCN(C)[C@H](C)Cc1ccccc1 | inactive
CC(C)CC(N(C)C)C1(c2ccc(Cl)cc2)CCC1.Cl (centres unmarked) | inactive
CC(NC(C)(C)C)C(=O)c1cccc(Cl)c1.Cl (centres unmarked) | inactive
CCC(COC(=O)c1cc(OC)c(OC)c(OC)c1)(c1ccccc1)N(C)C.O=C(O)/C=C\C(=O)O (centres unmarked) | inactive
Br.COc1ccc2c(c1)[C@]13CCCC[C@@H]1[C@H](C2)N(C)CC3 | inactive
Oc1cc(Cl)ccc1Oc1ccc(Cl)cc1Cl | inactive
O=c1c2ccccc2[se]n1-c1ccccc1 | inactive
c1cncc([C@@H]2CCCN2)c1 | inactive

Mixed results
SMILES | tested on | test | system | setting | scale | endpoint | value
Nc1ncnc2c(CN3CC(CSc4ccc(Cl)cc4)[C@H](O)C3)c[nH]c12 (some centres unmarked) | 5'-methylthioadenosine/S-adenosylhomocysteine nucleosidase (mtnN, Escherichia coli, UniProt P0AF12) |  |  |  |  | Ki | 0.0026 ± 0.0001 nM
O=c1[nH]c2ccccc2n1CCCN1CCC(n2c(=O)[nH]c3cc(Cl)ccc32)CC1 |  |  | water |  |  | solubility | < 1000 µg/mL
OCCN1CCN(CCC=C2c3ccccc3Sc3ccc(C(F)(F)F)cc32)CC1 | MCF7 | microarray, refers to: TNFAIP3 mRNA |  | concentration not given | relative to: DMSO | log2 fold change | 0.96
Cc1ccc2c(c1)CCCc1c(C(=O)NN3CCCCC3)nn(-c3ccc(Cl)cc3Cl)c1-2 | CB1 receptor | binding |  |  |  | Ki | 0.0052 nM
COc1cc2c3cc1Oc1cc(ccc1O)C[C@@H]1c4c(cc(OC)c(O)c4Oc4ccc(cc4)C[C@@H]3N(C)CC2)CC[N+]1(C)C |  | ACh iontophoretic pulse response | end-plate | concentration not given | relative to: control | end-plate response | 25%
O=C(NCCN1CCCC1)c1cc(-c2ccc(CN3CCOCC3)cc2)nc2ccc(F)cc12 | Plasmodium falciparum |  | 7G8 S474R mutant |  | relative to: parental strain | IC50 fold increase | 35 fold
NCCc1ccc(O)c(O)c1 | Abcam antibody |  |  |  |  | Kd | ~100000 nM
C[C@@H](O)[C@H]1C(=O)N2C(C(=O)O)=C(SCCN=CN)C[C@H]12 | Mycobacterium tuberculosis |  | H37Ra |  |  | MIC | 16 µg/mL (≈ 53.4 µM)
Cc1cc(N(CCOS(C)(=O)=O)CCOS(C)(=O)=O)ccc1C=O |  |  | human plasma |  |  | plasma protein binding | 74 to 85%
CCC(=O)C[C@@H](O)C[C@@H](C)C[C@H](NC(=O)[C@@H]1C[C@H](C)CN1C(=O)/C=C/[C@@H](C)CC)C(=O)N[C@H](C(=O)NC(C)(C)C(=O)N[C@@H](CC(C)C)C(=O)N[C@@H](CC(C)C)C(=O)NC(C)(C)C(=O)NC(C)(C)C(=O)NCCC(=O)N[C@@H](C)CN(C)C)[C@H](O)C(C)C |  | oxidative phosphorylation | rat liver mitochondria |  |  | uncoupling concentration | > 240 nM
CN/C(=N\S(=O)(=O)N1CCCCC1)N1CC(c2ccccc2)C(c2ccc(Cl)cc2)=N1 (centres unmarked) | CB1 receptor | binding |  |  |  | Ki | 58 nM
CC(C)=CCN1Cc2cc(Cl)cc3[nH]c(=S)n(c23)C[C@@H]1C | HIV-1 | viral replication | CEM |  |  | IC50 | 150 nM
CC[C@H](C)C[C@H](C)CCCCCCCCC(=O)N[C@H]1C[C@@H](O)[C@@H](NCCN)NC(=O)[C@@H]2[C@@H](O)CCN2C(=O)[C@H]([C@H](O)CCN)NC(=O)[C@H]([C@H](O)[C@@H](O)c2ccc(O)cc2)NC(=O)[C@@H]2C[C@@H](O)CN2C(=O)[C@H]([C@@H](C)O)NC1=O |  |  | human | with: radiolabelled compound |  | fraction excreted in urine | 41%
CN[C@H](CC(C)C)C(=O)N[C@H]1C(=O)N[C@@H](CC(N)=O)C(=O)N[C@H]2C(=O)N[C@H]3C(=O)N[C@H](C(=O)N[C@H](C(=O)O)c4cc(O)cc(O)c4-c4cc3ccc4O)[C@H](O)c3ccc(c(Cl)c3)Oc3cc2cc(c3O[C@@H]2O[C@H](CO)[C@@H](O)[C@H](O)[C@H]2O[C@H]2C[C@](C)(N)[C@H](O)[C@H](C)O2)Oc2ccc(cc2Cl)[C@H]1O | Enterobacter aerogenes |  | ATCC 35029 |  |  | MIC | > 128 µg/mL
Oc1ccc(C(c2ccc(O)cc2)(C(F)(F)F)C(F)(F)F)cc1 |  |  |  |  |  | log Kow | 4.47
CN(C)c1ccc2c(-c3ccc(C(=O)O)cc3C(=O)[O-])c3ccc(N(C)C)cc3[o+]c2c1 |  | refers to: carboxyl groups |  |  |  | pKa | < 5
CC(C)C[C@H](NC(=O)CNC(=O)[C@H](C)NC(=O)[C@H](CC(=O)O)NC(=O)[C@H](CC(=O)O)NC(=O)[C@H](C)NC(=O)[C@@H]1CCCN1C(=O)[C@H](CCCCN)NC(=O)CNC(=O)[C@@H]1CCCN1C(=O)[C@@H]1CCCN1C(=O)[C@@H]1CCCN1C(=O)[C@H](CCC(=O)O)NC(=O)CN)C(=O)N[C@H](C(=O)O)C(C)C |  |  | beagle dog | intravenous or intramuscular, dose not given |  | acute toxicity | not toxic
C[C@@H]1CN(c2ncc(C(O)CO)cc2Cl)CCN1c1nc2c(-c3cc(F)c(F)c(F)c3)cc(C(F)(F)F)cc2[nH]1 (some centres unmarked) | TRPV1 (rat) | antagonist, cell-based |  | with: low pH |  | IC50 | 0.9 nM
Oc1ccc(Cc2ccc(O)cc2)cc1 |  |  |  |  |  | log Kow | 2.92
COC(=O)C1=CO[C@@H](O[C@@H]2O[C@H](CO)[C@@H](O)[C@H](O)[C@H]2O)[C@@H]2[C@@H](C)[C@@H](O)C[C@H]12 | BChE | inhibitor |  |  |  | IC50 | 33000 nM
COC(=O)[C@@H]1C[C@H](OC(C)=O)C(=O)[C@H]2[C@@]1(C)CC[C@H]1C(=O)O[C@H](c3ccoc3)C[C@]21C | kappa opioid receptor Y312A |  |  |  |  | Ki | 88.6 nM and 79 nM
CC1(C)NC(=O)C(Cc2ccc(O)cc2)NC(=O)CNC(=O)C(Cc2ccc3ccccc3c2)NC(=O)C(CCCN=C(N)N)NC1=O (centres unmarked) | human CXCR4 D97A mutant |  |  |  |  | EC50 | 350 nM
CC[C@@H](CO)NCCN[C@@H](CC)CO | Mycobacterium tuberculosis |  | H37Ra |  |  | MIC | 8 µg/mL (≈ 39.2 µM)
C=C1CC[C@H](O)C/C1=C/C=C1\CCC[C@]2(C)[C@@H]([C@H](C)CCCC(C)C)CC[C@@H]12 | Sterol 26-hydroxylase, mitochondrial (CYP27A1, Homo sapiens, UniProt Q02318) | substrate |  |  |  | kcat | 0.035 s⁻¹
CCCCCOc1ccc(-c2cc(-c3ccc(C(=O)N[C@H]4C[C@@H](O)[C@@H](O)NC(=O)[C@@H]5[C@@H](O)[C@@H](C)CN5C(=O)[C@H]([C@H](O)CC(N)=O)NC(=O)[C@H]([C@H](O)[C@@H](O)c5ccc(O)c(OS(=O)(=O)O)c5)NC(=O)[C@@H]5C[C@@H](O)CN5C(=O)[C@H]([C@@H](C)O)NC4=O)cc3)no2)cc1 |  |  | human | with: radiolabelled compound |  | fraction excreted in faeces | 71%
